# Results of several laboratories.
# Compare with care: the assays were run in different laboratories. ± gives the spread as reported.
Compound,cell line,read-out,method,time,CC50
CCC(C)C1OC2(CCC1C)CC1CC(C/C=C(\C)C(OC3CC(OC)C(OC4CC(OC)C(O)C(C)O4)C(C)O3)C(C)/C=C/C=C3\COC4C(O)C(C)=CC(C(=O)O1)C34O)O2 (stereo not drawn),FRT,cell growth or viability,MTS,48 h,10.5 µM
Cc1cc(O)c(=O)c(O)cc1C(=O)c1ccccc1,HepDES19,,,,35 ± 11 µM
CC(C)C(=O)OC[C@H]1O[C@@](C#N)(n2ccc(N)nc2=O)[C@H](O)[C@@H]1O,CEM,,,,12.5 ± 5.5 µM
COC(=O)c1c2c(cc(O)c(=O)c1O)COC2=O,HepDES19,,,,> 77 µM
COc1cc(/C=C/c2ccc3c(c2)[C@@H](c2cc(OC)cc(OC)c2)[C@H](c2ccc(O)cc2)O3)cc(OC)c1,Calu-3,,,24 (unit not given),236 µM
COc1ccc(-c2cnc3c(C#Cc4cccnc4)snc3c2)cc1OC,human cells,,,24 (unit not given),> 10 µM
O=C(O)Cn1c(C2CC2)nc2ccccc21,Vero (eGFP),,,15 h,> 100 µM
O=c1c(O)ccccc1O,HepDES19,,,,> 100 µM
CCCCCCCCCCCCCC(=O)N[C@@H](Cc1ccccc1)C(=O)N[C@@H](Cc1ccccc1)C(=O)N[C@@H](Cc1ccccc1)C(=O)N[C@@H](Cc1ccc(O)cc1)C(=O)NCC(=O)N[C@@H](CCCNC(=N)N)C(=O)N[C@@H](CCCCN)C(=O)N[C@@H](CCCCN)C(=O)N[C@@H](CCCNC(=N)N)C(=O)N[C@@H](CCCNC(=N)N)C(=O)N[C@@H](CCC(N)=O)C(=O)N[C@@H](CCCNC(=N)N)C(=O)N[C@@H](CCCNC(=N)N)C(=O)N[C@@H](CCCNC(=N)N)C(=O)O,RAW264.7,cell growth or viability,,,21 µM
COc1cc(OC)cc([C@@H]2c3cc(/C=C/c4cc(O)cc(O)c4)ccc3O[C@H]2c2ccc(O)cc2)c1,human cells,,,1 (unit not given),1250 µM
CCOC(=O)c1c(-c2ccccc2)oc2c([N+](=O)[O-])cc([N+](=O)[O-])cc12,Vero (eGFP),,,15 h,> 100 µM
COC(=O)c1c(C)cc(O)c(=O)c(O)c1C(=O)OC,HepDES19,,,,38 ± 2 µM
CC1CC(C(F)F)n2nc(C(=O)O)nc2N1 (stereo not drawn),Vero (eGFP),,,15 h,> 100 µM
N=C(N)NCCC[C@H](NC(=O)[C@H](CCCNC(=N)N)NC(=O)[C@H](CCCNC(=N)N)NC(=O)[C@H](CCC(N)=O)NC(=O)[C@H](CCCNC(=N)N)NC(=O)[C@H](CCCNC(=N)N)NC(=O)[C@H](CCCCN)NC(=O)[C@H](CCCCN)NC(=O)[C@H](CCCNC(=N)N)NC(=O)CNC(=O)[C@H](Cc1ccc(O)cc1)NC(=O)[C@H](Cc1ccccc1)NC(=O)[C@H](Cc1ccccc1)NC(=O)[C@H](Cc1ccccc1)NC(=O)Cc1ccc2ccccc2c1)C(=O)O,RAW264.7,cell growth or viability,,,36.6 µM
COCc1cc(O)c(=O)c(O)c(C(=O)OC)c1C(=O)OC,HepDES19,,,,> 90 µM
COc1ccc(-c2cnc3[nH]cc(C#Cc4cccnc4)c3c2)cc1OC,Calu-3,cell growth or viability,resazurin,,> 60 µM
Cc1cc(O)c(=O)c(O)cc1-c1cccc2ccccc12,HepDES19,,,,29 ± 4.3 µM
NC(=O)[C@@H](CCC(F)(F)F)N(Cc1ccc(-c2ncon2)cc1F)S(=O)(=O)c1ccc(Cl)cc1,Huh-7.5.1,cell growth or viability,ATP luminescence,48 h,56.1 µM
O=C(N[C@@H](Cc1ccccc1)C(=O)N[C@@H](C[C@@H]1CCNC1=O)C(O)S(=O)(=O)O)OCc1ccccc1 (stereo partly drawn),MDCK,,,5 (unit not given),214 ± 7.2 µM
CCOC(=O)c1c(C)nc2cccc(N)n12,Vero (eGFP),,,15 h,> 100 µM
C[C@H](NC(=O)[C@@H](O)c1cc(F)cc(F)c1)C(=O)N[C@@H]1C(=O)N(C)c2ccccc2-c2ccccc21,Huh-7.5.1,cell growth or viability,ATP luminescence,48 h,> 64 µM
Cc1cc(O)c(=O)c(O)cc1C(=O)O,HepDES19,,,,> 100 µM
COc1cc(/C=C/c2ccc3c(c2)[C@@H](c2cc(O)cc(O)c2)[C@H](c2ccc(O)cc2)O3)cc(OC)c1,Calu-3,,,24 (unit not given),43 µM
COC(=O)c1cn([C@H]2C[C@@H](C(=O)NCc3cccc(C(F)(F)F)c3)N(C3CCN(Cc4ccccc4)CC3)C2)nn1,Vero (eGFP),,,15 h,> 100 µM

# A few entries again:
Compound,cell line,read-out,method,time,CC50
COC(=O)c1c2c(cc(O)c(=O)c1O)COC2=O,HepDES19,,,,> 77 µM
CCOC(=O)c1c(-c2ccccc2)oc2c([N+](=O)[O-])cc([N+](=O)[O-])cc12,Vero (eGFP),,,15 h,> 100 µM
CCCCCCCCCCCCCC(=O)N[C@@H](Cc1ccccc1)C(=O)N[C@@H](Cc1ccccc1)C(=O)N[C@@H](Cc1ccccc1)C(=O)N[C@@H](Cc1ccc(O)cc1)C(=O)NCC(=O)N[C@@H](CCCNC(=N)N)C(=O)N[C@@H](CCCCN)C(=O)N[C@@H](CCCCN)C(=O)N[C@@H](CCCNC(=N)N)C(=O)N[C@@H](CCCNC(=N)N)C(=O)N[C@@H](CCC(N)=O)C(=O)N[C@@H](CCCNC(=N)N)C(=O)N[C@@H](CCCNC(=N)N)C(=O)N[C@@H](CCCNC(=N)N)C(=O)O,RAW264.7,cell growth or viability,,,21 µM
CC1CC(C(F)F)n2nc(C(=O)O)nc2N1 (stereo not drawn),Vero (eGFP),,,15 h,> 100 µM
